Published values collected from several papers.
Each numbered part is a random draw from the data of one study; scales do not carry over between parts.
Chain of UniProt Q9H2X6 (whole entry, looked up): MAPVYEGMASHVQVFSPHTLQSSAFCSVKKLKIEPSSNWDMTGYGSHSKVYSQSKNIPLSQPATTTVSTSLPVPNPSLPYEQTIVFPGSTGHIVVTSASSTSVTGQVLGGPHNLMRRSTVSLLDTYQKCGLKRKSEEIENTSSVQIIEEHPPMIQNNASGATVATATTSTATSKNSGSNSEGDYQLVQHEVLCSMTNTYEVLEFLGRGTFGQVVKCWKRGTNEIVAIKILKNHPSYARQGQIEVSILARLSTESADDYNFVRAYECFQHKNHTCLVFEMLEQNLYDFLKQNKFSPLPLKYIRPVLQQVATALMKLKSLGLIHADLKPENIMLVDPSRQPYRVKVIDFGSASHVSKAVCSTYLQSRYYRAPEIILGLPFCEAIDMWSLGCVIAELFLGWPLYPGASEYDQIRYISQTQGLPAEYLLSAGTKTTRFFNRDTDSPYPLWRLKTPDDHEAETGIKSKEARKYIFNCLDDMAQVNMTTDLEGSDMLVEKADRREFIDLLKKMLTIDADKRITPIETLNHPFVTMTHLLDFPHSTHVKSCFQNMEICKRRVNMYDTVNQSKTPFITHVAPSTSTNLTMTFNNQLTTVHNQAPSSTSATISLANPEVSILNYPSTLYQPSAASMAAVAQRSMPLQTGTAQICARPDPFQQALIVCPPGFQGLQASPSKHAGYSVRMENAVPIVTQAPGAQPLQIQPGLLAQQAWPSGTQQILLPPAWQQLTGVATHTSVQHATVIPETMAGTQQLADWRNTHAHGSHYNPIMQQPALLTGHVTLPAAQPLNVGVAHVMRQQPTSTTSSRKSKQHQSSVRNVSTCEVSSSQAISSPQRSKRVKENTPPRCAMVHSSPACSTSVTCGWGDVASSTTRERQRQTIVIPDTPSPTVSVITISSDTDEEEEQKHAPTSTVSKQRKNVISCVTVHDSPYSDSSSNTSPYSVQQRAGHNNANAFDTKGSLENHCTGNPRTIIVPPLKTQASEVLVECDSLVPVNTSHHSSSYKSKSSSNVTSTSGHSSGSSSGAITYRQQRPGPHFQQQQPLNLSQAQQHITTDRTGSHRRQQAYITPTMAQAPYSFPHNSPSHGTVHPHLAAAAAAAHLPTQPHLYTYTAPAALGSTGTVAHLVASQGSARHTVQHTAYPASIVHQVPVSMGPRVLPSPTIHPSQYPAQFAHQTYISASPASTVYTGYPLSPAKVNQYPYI

Set 1
Target: Runt-related transcription factor 3, Runt domain (RUNX3, Homo sapiens, UniProt Q13761, residues 53-186)
Chain of UniProt Q13761 (53-186, looked up): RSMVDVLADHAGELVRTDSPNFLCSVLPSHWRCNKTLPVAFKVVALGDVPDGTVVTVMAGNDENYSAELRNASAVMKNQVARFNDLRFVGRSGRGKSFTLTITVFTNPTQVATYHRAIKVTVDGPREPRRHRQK
Technique: protein-binding microarray
Form: hairpin DNA
Matrix: in vitro
Concentration: not given
Setting: whole hairpin DNA, median over replicate spots
Relative to: not given
Reading: higher = stronger binding
Measurement: median fluorescence
Strand = GAGGCCTCGTGCGGTTGGCCTCCTGGCCAACCGCACGAGGCCTCACACTC (5mC at 8 36); result = 6170 a.u.
Strand = GAGGCCCAACCGCCGCAGCCTCCTGGCTGCGGCGGTTGGGCCTCACACTC; result = 6280 a.u.
Strand = CTCAGTTCTGTGGGCTGGACTCCTGTCCAGCCCACAGAACTGAGACACTC (5mC at 31); result = 3780 a.u.
Strand = GAGGCCTGTTGCGGTTGGCCTCCTGGCCAACCGCAACAGGCCTCACACTC (5mC at 12 32); result = 4920 a.u.
Strand = CTCAGTTCTGTCGGCTGGACTCCTGTCCAGCCGACAGAACTGAGACACTC (5mC at 32); result = 4150 a.u.
Strand = GAGGCCGGTTGTGGTTGGCCTCCTGGCCAACCACAACCGGCCTCACACTC (5mC at 38); result = 6110 a.u.
Strand = GAGGCCTGTCGCGGTTGGCCTCCTGGCCAACCGCGACAGGCCTCACACTC (5mC at 10 34); result = 7660 a.u.
Strand = GAGGCCCGTTGCGGTTGGCCTCCTGGCCAACCGCAACGGGCCTCACACTC (5mC at 7); result = 9220 a.u.

Set 2
Target: TAR DNA-binding protein 43, full length, His tag (TARDBP, Homo sapiens, UniProt Q13148, residues 1-414)
Technique: RNA Bind-n-Seq
Form: RNA
Matrix: in vitro
Concentration: 20 nM
Setting: 6-mer, flanks averaged, single round
Together with: 150 mM KCl
Relative to: input library
Reading: higher = stronger binding
Measurement: 6-mer enrichment (R)
Strand = CCUGUU; result = 0.619
Strand = GUAACC; result = 0.66
Strand = GUUAAC; result = 0.611
Strand = CCUUGA; result = 0.776
Strand = GUACCA; result = 0.692
Strand = GGCUGC; result = 1.51
Strand = CAACGC; result = 0.667
Strand = GGUCGG; result = 3.16

Set 3
Target: Interferon regulatory factor 7, full length, phosphomimetic (IRF7, Homo sapiens, UniProt Q92985, residues 1-503, S471D/S472D/S475D/S476D/S477D/S483D/S484D/S487D)
Technique: protein-binding microarray
Form: double-stranded DNA, one strand shown
Matrix: in vitro
Concentration: 2200 nM top
Setting: 60-bp whole probe
Together with: salmon DNA 0.4 mg/ml
Relative to: random background probes
Reading: higher = stronger binding
Measurement: fitted relative affinity
Shared flanks, not repeated: GCCTAGCAC … GTCTTGATTCGCTTGACGCTGCTG
Construct (chain): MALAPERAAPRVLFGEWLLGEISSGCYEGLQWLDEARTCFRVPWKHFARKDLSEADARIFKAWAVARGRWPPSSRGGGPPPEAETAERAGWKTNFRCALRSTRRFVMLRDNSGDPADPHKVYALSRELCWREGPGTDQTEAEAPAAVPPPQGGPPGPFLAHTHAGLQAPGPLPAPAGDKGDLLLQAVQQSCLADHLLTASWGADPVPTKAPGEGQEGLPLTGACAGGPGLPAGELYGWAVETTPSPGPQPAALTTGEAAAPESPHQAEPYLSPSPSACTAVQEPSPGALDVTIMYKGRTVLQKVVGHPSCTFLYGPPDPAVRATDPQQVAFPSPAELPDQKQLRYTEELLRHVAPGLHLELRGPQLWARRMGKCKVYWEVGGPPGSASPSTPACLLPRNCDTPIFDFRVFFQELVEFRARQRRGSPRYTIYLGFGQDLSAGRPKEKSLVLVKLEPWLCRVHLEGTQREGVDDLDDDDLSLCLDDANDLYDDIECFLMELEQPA
Strand = TTAGATATCGGGTAGCGATTAGTGCTA; result = -0.624 z-score
Strand = GACGGTTTCGGTCTCGGAACGTGCTAG; result = 6.57 z-score
Strand = TTAGATTTCAGTCACGATTAGTGCTAG; result = 0.156 z-score
Strand = GACGGTTTCCTACTGATGACGTGCTAG; result = 1.82 z-score
Strand = GACGGTATCGGATTGGGGACGTGCTAG; result = 0.582 z-score
Strand = TTTGCTTTCCTTTGCTTTCTGTGCTAG; result = 4.15 z-score
Strand = TCAAGTGTTTTTCTCCTACTGTGCTAG; result = 1.39 z-score
Strand = TCACTTCTCCCTTTCAGACTGTGCTAG; result = 3.39 z-score

Other studies, line by line
SMILES = O=C(O)/C=C/c1cc(Br)c(Br)c(Br)c1Br; target = Homeodomain-interacting protein kinase 2 (HIPK2, Homo sapiens, UniProt Q9H2X6); assay = enzyme activity, inhibitor; setting = 0.5 µM; how to read = relative to: control; measurement = remaining activity; result = 82.2%

For quick reference, copied from above (set 3):
Strand = TCACTTCTCCCTTTCAGACTGTGCTAG; result = 3.39 z-score
Strand = TCAAGTGTTTTTCTCCTACTGTGCTAG; result = 1.39 z-score
